Experimental data collected from several papers.
Each numbered part is a random draw from the data of one study; scales do not carry over between parts. Changes are numbered by the printed parent chain.

Set 1
Target: Interferon regulatory factor 7, full length, phosphomimetic (IRF7, Homo sapiens, UniProt Q92985, residues 1-503, S101K/S471D/S472D/S475D/S476D/S477D/S483D/S484D/S487D)
Chain of UniProt Q92985 (whole entry, unmodified, looked up): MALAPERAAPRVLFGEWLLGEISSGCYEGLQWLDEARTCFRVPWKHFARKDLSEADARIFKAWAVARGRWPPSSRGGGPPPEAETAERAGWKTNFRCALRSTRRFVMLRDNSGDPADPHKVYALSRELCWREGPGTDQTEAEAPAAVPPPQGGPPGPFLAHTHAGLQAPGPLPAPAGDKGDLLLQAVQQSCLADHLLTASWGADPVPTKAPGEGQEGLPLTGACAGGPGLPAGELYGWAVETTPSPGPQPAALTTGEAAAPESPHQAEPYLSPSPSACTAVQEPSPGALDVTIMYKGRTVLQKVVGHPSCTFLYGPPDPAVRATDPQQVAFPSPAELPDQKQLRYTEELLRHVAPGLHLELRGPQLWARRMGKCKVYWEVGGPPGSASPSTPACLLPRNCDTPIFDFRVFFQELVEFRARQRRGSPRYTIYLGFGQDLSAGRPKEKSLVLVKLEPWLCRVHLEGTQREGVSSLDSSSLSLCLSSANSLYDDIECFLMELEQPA
Technique: protein-binding microarray
Form: double-stranded DNA, one strand shown
Medium: in vitro
Concentration: 250 nM
Setting: 60-bp whole probe
Added: salmon DNA 0.4 mg/ml
Baseline: random background probes
Reading: higher = stronger binding
Measurement: log fluorescence
Shared flanks, not repeated: GCCTAGCAC … GTCTTGATTCGCTTGACGCTGCTG
Sequence = GACGGTATCCTTAACCTGACGTGCTAG; value = 0.328 z-score
Sequence = CTTAGCATGGGGAGGGAGCAGTGCTAG; value = 0.224 z-score
Sequence = TCATACATGGGTTTTCAGACTGTGCTA; value = -0.0814 z-score
Sequence = TTAGGTATCGGGTGTCGGTTAGTGCTA; value = -0.0258 z-score
Sequence = TTAGGACTGGACTATCTGTTAGTGCTA; value = -0.133 z-score

Set 2
Target: CCNB2, cyclin fold, Cln2 fusion (human)
Technique: yeast growth competition, sequencing
Medium: yeast
Setting: weak parent motif
Baseline: not given
Reading: higher = stronger binding
Measurement: normalised enrichment score
Starting sequence: CDC25A docking peptide (human); PPHRRRLLFACSP; partner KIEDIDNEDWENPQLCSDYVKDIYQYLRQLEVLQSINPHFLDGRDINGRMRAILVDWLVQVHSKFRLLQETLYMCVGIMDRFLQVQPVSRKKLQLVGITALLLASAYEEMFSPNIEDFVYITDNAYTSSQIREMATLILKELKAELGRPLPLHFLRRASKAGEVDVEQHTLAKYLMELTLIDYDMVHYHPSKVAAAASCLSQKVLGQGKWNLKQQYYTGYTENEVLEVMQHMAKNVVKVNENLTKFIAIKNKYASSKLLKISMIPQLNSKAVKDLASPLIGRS
Variant = PPHRRALLFACSP [R6A]; value = 0.186
Variant = PPHHRRLLFACSP [R4H]; value = -0.0778
Variant = PPHRRRLLFARSP [C11R]; value = 0.113
Variant = PPHRRRKLFACSP [L7K]; value = 0.708
Variant = PPHRRRLRFACSP [L8R]; value = 0.684
Variant = PPHRRWLLFACSP [R6W]; value = 0.826
Variant = PPHRRRLLLACSP [F9L]; value = 0.547

Set 3
Target: RNA binding protein fox-1 homolog 2, RRM domain, GST-SBP tag (RBFOX2, Homo sapiens, UniProt O43251-10, residues 100-194)
Technique: RNA Bind-n-Seq
Form: RNA
Medium: in vitro
Concentration: 365 nM
Setting: natural RNA segment, single round, ends assumed
Baseline: no-protein control
Reading: higher = stronger binding
Measurement: RBNS enrichment (R)
Shared flanks, not repeated: GGGAGUUCUACAGUCCGACGAUC … UGGAAUUCUCGGGUGCCAA
Construct (chain): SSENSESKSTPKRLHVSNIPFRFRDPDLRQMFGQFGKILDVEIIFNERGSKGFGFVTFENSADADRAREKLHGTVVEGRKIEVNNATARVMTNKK
Sequence = CCAAGGGCGUUCACUGCGACCUGGGAGUAAACAGGGUGUCGCUGCCCUGUGAGAGGAAGAUGGGGCCACCCCAGGGCUCCCAAUGCACUCGGAAGUCAGCAGUACCAGGA; value = 0.219
Sequence = AAAUAGUACAUUGCAUUUUGAAGUUUUGGGUUUUGUCCUUCAUCUUUCCCUUUCCCUUCAAAUCUUUUAAUGGUAAGAAAGCAAGUGAAGCUUGGUGCAAGCUAAAAUUU; value = 0.731
Sequence = GUGGGUGUGUGGAACGGGUCUGCUCUGCCUGCUUCUGUCUCUGUCUGGGUGUUUGAGUUCCAAAAAGUGUGUGGUGUUUGUUCCUCCUCAUCCUCUUCUGAGACUGUUGA; value = 1.01
Sequence = GUUUCUGAGUUUAGCCUAUAUAAACAUACUAUAUGUGCCCAGAGGUCUACAGUCACCCUUUUUUAUAAACAUAAAAAGACAUCUAGACUUAUUUUUACAAAUUAUUGGAA; value = 0.443
Sequence = AGCAAUUUUGGGGAAGGGUUUGAAUUGUUUUCUUUAAAGAUGUAAUGUCCCUUUCAGAGACAGCUGAUACUUCAUUUAAAAAAAUCACAAAAAUUUGAACACUGGCUAAA; value = 0.381
Sequence = GGACACCAGAGGCUGCCUUAGCAGAUGGGUCACACUGCUUCCAGCCUUAGCCAGCCAGUGACAAGUGAAUCCAGACGUCACCCAUGUGUUUUGGAACAUUUAUGUAAGAU; value = 0.34
Sequence = CGUCUCCGUGCAGAUCUUGAAGAGAAAGAACCUCGGCUGCUGUGCUGGGGUUGAACAGAGCCUCCCACCUGGGAAGGCAGAGCAGACCUGCCCAAGAGCUCCCCACACGC; value = 0.246

Other studies, line by line
Substance = PhoQ, residues 284 288 289 292 302 303 AMDMFI; target = PhoP, residues 12 14 15 18 19 IFFTR (Escherichia coli, UniProt P23836); test = Sort-seq, item: YFP reporter; system = E. coli; setting = PhoQ-PhoP variant library, added: 10 µM Mg2+; scale = baseline: high Mg2+ state, higher = stronger signaling; measurement = fold induction; value = 0.425

A few entries again (set 3):
Sequence = AGCAAUUUUGGGGAAGGGUUUGAAUUGUUUUCUUUAAAGAUGUAAUGUCCCUUUCAGAGACAGCUGAUACUUCAUUUAAAAAAAUCACAAAAAUUUGAACACUGGCUAAA; value = 0.381
